Assay results collected from several papers.
Parts stem from different laboratories: compare values within a part only. Changes are numbered by the printed parent chain.
Chain of UniProt O14933 (whole entry, looked up): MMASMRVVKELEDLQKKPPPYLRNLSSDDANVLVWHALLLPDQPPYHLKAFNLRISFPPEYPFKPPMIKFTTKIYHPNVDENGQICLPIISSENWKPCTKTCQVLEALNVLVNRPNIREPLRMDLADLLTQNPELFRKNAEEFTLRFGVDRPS
Chain of UniProt Q8WVN8 (whole entry, looked up): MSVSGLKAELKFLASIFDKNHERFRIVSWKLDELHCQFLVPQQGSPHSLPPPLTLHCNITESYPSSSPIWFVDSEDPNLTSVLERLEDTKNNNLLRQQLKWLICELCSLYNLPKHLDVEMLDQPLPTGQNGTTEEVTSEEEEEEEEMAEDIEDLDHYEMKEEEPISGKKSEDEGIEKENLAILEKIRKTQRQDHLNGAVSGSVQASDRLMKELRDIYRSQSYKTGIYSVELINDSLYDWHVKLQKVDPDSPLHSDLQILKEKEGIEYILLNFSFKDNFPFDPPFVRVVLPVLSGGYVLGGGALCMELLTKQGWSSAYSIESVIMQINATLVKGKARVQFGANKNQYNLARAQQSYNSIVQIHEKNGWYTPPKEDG
Chain of UniProt P61088 (whole entry, looked up): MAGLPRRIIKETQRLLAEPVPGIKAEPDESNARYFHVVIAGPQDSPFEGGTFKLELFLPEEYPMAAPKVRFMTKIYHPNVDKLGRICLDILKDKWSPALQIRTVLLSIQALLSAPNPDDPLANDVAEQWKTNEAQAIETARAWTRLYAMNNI
Chain of UniProt P62256 (whole entry, looked up): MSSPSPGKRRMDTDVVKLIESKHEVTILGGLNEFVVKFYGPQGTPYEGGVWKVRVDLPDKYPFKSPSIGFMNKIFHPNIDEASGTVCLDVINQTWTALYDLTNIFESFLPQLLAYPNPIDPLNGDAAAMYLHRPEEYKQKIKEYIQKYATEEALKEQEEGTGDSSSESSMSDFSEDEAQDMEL
Chain of UniProt Q5VVX9 (whole entry, looked up): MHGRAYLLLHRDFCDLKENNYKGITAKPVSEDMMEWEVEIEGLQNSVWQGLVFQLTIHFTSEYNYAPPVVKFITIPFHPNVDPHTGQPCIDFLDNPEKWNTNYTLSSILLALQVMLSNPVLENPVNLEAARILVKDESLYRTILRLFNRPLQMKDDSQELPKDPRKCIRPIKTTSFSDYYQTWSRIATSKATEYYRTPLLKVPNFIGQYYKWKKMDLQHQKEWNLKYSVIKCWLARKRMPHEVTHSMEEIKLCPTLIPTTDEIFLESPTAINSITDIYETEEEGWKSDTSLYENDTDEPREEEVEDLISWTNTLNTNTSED
Chain of UniProt P51965 (whole entry, looked up): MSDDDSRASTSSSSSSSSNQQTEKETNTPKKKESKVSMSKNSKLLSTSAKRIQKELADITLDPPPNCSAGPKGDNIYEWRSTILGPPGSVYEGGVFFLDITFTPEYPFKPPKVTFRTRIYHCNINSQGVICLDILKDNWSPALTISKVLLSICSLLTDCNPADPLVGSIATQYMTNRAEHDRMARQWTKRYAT
Chain of UniProt Q13404 (whole entry, looked up): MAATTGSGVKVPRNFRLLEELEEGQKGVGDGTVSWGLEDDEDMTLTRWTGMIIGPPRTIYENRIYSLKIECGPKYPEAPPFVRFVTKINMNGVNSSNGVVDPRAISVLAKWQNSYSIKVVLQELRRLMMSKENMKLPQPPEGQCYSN
Chain of UniProt P49427 (whole entry, looked up): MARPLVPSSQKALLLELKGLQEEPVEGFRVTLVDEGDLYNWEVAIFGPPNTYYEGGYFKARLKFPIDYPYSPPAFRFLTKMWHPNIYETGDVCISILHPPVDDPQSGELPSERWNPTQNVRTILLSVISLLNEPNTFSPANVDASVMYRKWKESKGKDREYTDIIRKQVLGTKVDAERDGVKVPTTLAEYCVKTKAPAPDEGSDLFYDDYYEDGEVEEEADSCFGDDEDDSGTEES
Chain of UniProt Q15819 (whole entry, looked up): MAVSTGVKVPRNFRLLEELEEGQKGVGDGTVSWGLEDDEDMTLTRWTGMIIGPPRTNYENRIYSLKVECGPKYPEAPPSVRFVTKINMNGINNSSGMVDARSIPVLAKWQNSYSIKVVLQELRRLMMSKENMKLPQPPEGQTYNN
Chain of UniProt P60604 (whole entry, looked up): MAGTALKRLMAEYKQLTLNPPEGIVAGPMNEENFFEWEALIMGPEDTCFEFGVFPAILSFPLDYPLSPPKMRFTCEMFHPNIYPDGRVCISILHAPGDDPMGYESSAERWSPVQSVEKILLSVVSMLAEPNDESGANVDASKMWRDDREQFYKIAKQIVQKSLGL
Chain of UniProt Q96LR5 (whole entry, looked up): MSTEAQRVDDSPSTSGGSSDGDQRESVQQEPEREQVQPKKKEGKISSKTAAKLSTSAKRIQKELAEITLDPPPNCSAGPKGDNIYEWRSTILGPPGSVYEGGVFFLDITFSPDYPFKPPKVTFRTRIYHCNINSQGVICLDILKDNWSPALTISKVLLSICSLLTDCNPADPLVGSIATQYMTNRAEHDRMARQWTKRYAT

Sample 1
Target: Histone acetyltransferase KAT6A, winged helix 2, GST fusion (KAT6A, Homo sapiens, UniProt Q92794, residues 85-181)
Technique: protein binding microarray
Form: double-stranded DNA, one strand shown
Matrix: in vitro
Concentration: not given
Notes: 8-mer, flanks averaged, mean of 2 arrays, mostly near background
Relative to: not given
Reading: higher = stronger binding
Construct (chain): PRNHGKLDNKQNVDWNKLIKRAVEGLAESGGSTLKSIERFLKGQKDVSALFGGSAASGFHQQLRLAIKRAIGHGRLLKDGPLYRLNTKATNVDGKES
Strand | E-score
AGTTAACT | -0.0578
CGCCGCCC | 0.123
ACAGGGAG | -0.0344
AGAATACA | -0.00788
CTCTTGTC | -0.0206
GTCAATAA | -0.123
ATGCATTA | -0.16
CAAAAAGG | 0.054
AAGGCGAC | -0.0589
GTAGCGGA | 0.0588
ATCCGGAA | 0.126
AGTGGATA | -0.0342
ACATGACC | -0.239
ACCCTGAT | -0.0874
ACTAGTAC | -0.0833
ATGTTCCG | -0.00083
ACAGGCTA | -0.148
CAGTTCAA | -0.151
GGCGGACC | 0.158
ACTGTCCT | -0.102
GTGATGAA | -0.23
ACCGTGAG | -0.163
CCGGCACC | 0.197
CGCTGAAC | 0.122
CCTGACTA | -0.0309

Sample 2
Target: Interferon regulatory factor 7, full length, phosphomimetic (IRF7, Homo sapiens, UniProt Q92985, residues 1-503, S101K/S471D/S472D/S475D/S476D/S477D/S483D/S484D/S487D)
Technique: protein-binding microarray
Form: double-stranded DNA, one strand shown
Matrix: in vitro
Concentration: 250 nM
Notes: 60-bp whole probe
Added: salmon DNA 0.4 mg/ml
Relative to: random background probes
Reading: higher = stronger binding
All sequences stand within: GCCTAGCAC … GTCTTGATTCGCTTGACGCTGCTG
Target sequence (chain): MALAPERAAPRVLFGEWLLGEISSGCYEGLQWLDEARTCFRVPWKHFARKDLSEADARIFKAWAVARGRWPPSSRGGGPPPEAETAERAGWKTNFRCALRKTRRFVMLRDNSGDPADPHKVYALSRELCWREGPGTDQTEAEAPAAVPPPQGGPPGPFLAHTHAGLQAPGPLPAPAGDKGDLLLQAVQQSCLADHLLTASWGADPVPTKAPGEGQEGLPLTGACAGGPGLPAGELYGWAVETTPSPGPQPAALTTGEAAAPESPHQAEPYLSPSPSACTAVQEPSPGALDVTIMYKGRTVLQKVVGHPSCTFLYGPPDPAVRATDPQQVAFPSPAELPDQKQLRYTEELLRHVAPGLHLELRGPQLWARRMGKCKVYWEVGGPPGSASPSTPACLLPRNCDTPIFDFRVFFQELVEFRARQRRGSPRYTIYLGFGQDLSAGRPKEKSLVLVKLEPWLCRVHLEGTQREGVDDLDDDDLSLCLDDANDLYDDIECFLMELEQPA
Strand | log fluorescence [z-score]
TTAGGGATCGGTCTCGGTTAGTGCTAG | 1.66
TTAGGTTTCGGAACTGGGTTAGTGCTA | 6.17
ATAGGTCTCCTACTGCTTTAGTGCTAG | -0.254
TTCGGTATCGGGTATCGGTTAGTGCTA | 1.52
ATGTCCTCCTCTCTCTTTCCGTGCTAG | 1.01
TCCAATTGTCCTTTCACTTTGTGCTAG | 0.659
TTAGATATCGGGTTTCAATTAGTGCTA | 0.97
GACGGTATCGGGCCTGGGGACGTGCTA | -0.442
TCATTTCCAATTCTCTTACTGTGCTAG | 2.67
TTAGGTATCGGACTGGTTTAGTGCTAG | 0.435
GACGATATCAGGACTGGAGACGTGCTA | -0.183
ACCCATCTCAAGTAGCCTAGCGTGCTA | -0.0974
TTAGGACTGCTTTTCATTTAGTGCTAG | 1.23
GAGCAGAGGCTGATGTATGTGTGCTAG | -1.26
TTAGGAATGCTTATCCTTTAGTGCTAG | -0.00644
TTAGAACTGGGGTCTCGATTAGTGCTA | 0.317
TTAGGACTCCTTCTCCTTTAGTGCTAG | 0.452
TCAGATTTCCTTCACCCACTGTGCTAG | 0.75
TTACGTTCCCTTTTCCTTTAGTGCTAG | 3.11
TCAATTCTTTTTATGCTACTGTGCTAG | 0.805
TTAGGTTGCCTTTCCCTTTAGTGCTAG | 0.515

Sample 3
Target: CCNB1, cyclin fold, Cln2 fusion (human)
Technique: yeast growth competition, sequencing
Matrix: yeast
Notes: strong parent motif
Relative to: not given
Reading: higher = stronger binding
Parent: RBL2 docking peptide (human); STTRRRLFVENDS
Variant | normalised enrichment score
STTRRRLFDENDS [V9D] | 1.29
STTVRRLFVENDS [R4V] | 1.66
STTRRVLFVENDS [R6V] | 0.999
STTRRRLFVECDS [N11C] | 1.32
STTRRRLLVENDS [F8L] | 0.489
STTKRRLFVENDS [R4K] | 0.514
STTRRRLHVENDS [F8H] | -0.0491
STTRRRLFVENDR [S13R] | 1.46
STHRRRLFVENDS [T3H] | 0.0626
STTRRQLFVENDS [R6Q] | 1.48
STTYRRLFVENDS [R4Y] | 1.37
SCTRRRLFVENDS [T2C] | 0.962
STTRRRLFVENDM [S13M] | 0.626
SHTRRRLFVENDS [T2H] | 1.26
STTRRRLFRENDS [V9R] | 0.454
STTNRRLFVENDS [R4N] | 0.552
STTRRRLFVEGDS [N11G] | 1.5
STTRRRLFVEEDS [N11E] | 1.11
STKRRRLFVENDS [T3K] | 0.924
STTRRRLFPENDS [V9P] | 0.0778
STTRRRLFVENHS [D12H] | 0.494
CTTRRRLFVENDS [S1C] | 1.76
SYTRRRLFVENDS [T2Y] | 0.855
STTRRTLFVENDS [R6T] | -0.0482
SMTRRRLFVENDS [T2M] | 1.37

Sample 4
Substance: RNF13 RING domain (UniProt O43567)
Chain of UniProt O43567 (whole entry, looked up): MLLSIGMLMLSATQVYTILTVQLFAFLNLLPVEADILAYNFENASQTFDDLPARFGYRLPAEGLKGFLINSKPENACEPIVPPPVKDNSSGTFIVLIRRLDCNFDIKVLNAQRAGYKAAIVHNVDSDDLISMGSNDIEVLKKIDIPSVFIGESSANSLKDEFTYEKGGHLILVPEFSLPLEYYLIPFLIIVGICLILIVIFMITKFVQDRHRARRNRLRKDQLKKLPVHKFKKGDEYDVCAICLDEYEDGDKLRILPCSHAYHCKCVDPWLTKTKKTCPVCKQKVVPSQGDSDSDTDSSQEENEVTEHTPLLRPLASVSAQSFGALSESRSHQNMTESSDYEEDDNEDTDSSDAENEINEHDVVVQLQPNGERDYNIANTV
Technique: yeast two-hybrid
Matrix: yeast
Notes: mostly zero background
Relative to: not given
Reading: higher = stronger interaction
target | lacZ reporter activity
UBE2Q2 UBC core domain (UniProt Q8WVN8) | 0
UBE2H UBC core domain (UniProt P62256) | 0
UBE2V2 UBC core domain (UniProt Q15819) | 0
UBE2E2 UBC core domain (UniProt Q96LR5) | 0
UBE2G2 UBC core domain (UniProt P60604) | 8610
UBE2L6 UBC core domain (UniProt O14933) | 0
UBE2N UBC core domain (UniProt P61088) | 5450
CDC34 UBC core domain (UniProt P49427) | 0
UBE2V1 UBC core domain (UniProt Q13404) | 0
UBE2U UBC core domain (UniProt Q5VVX9) | 0
UBE2E1 UBC core domain (UniProt P51965) | 2430

Further values, each from its own experiment
Technique: two-hybrid
Relative to: out of 4 tests
Reading: higher = firmer interaction
T1: itself; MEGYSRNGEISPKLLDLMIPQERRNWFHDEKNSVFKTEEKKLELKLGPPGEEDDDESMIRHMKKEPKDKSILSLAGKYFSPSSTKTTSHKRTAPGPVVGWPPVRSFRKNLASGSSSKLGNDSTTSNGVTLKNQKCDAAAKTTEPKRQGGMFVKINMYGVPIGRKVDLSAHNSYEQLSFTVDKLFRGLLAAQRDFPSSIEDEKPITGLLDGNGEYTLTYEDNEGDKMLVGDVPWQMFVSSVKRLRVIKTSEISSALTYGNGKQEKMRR
T2: itself; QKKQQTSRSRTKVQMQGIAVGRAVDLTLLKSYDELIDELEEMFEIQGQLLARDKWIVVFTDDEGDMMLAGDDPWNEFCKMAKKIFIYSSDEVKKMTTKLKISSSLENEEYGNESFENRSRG
T3: itself; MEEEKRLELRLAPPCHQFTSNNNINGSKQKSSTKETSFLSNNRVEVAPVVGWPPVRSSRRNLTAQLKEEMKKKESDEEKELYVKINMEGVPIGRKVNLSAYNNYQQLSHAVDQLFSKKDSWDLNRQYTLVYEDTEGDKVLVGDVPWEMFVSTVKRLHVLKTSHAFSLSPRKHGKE
T4: itself; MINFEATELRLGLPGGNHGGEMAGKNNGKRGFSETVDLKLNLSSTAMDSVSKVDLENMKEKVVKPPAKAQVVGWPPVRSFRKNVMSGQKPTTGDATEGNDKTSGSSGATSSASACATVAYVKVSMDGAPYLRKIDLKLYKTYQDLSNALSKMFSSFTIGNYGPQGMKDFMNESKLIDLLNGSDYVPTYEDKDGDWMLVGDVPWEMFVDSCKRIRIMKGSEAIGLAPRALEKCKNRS
B1: IAA18 (Arabidopsis thaliana, UniProt O24408); chain MEGYSRNGEISPKLLDLMIPQERRNWFHDEKNSVFKTEEKKLELKLGPPGEEDDDESMIRHMKKEPKDKSILSLAGKYFSPSSTKTTSHKRTAPGPVVGWPPVRSFRKNLASGSSSKLGNDSTTSNGVTLKNQKCDAAAKTTEPKRQGGMFVKINMYGVPIGRKVDLSAHNSYEQLSFTVDKLFRGLLAAQRDFPSSIEDEKPITGLLDGNGEYTLTYEDNEGDKMLVGDVPWQMFVSSVKRLRVIKTSEISSALTYGNGKQEKMRR
B2: ARF18 482-602 (Arabidopsis thaliana, UniProt Q9C5W9); chain QKKQQTSRSRTKVQMQGIAVGRAVDLTLLKSYDELIDELEEMFEIQGQLLARDKWIVVFTDDEGDMMLAGDDPWNEFCKMAKKIFIYSSDEVKKMTTKLKISSSLENEEYGNESFENRSRG
B3: IAA28 (Arabidopsis thaliana, UniProt Q9XFM0); chain MEEEKRLELRLAPPCHQFTSNNNINGSKQKSSTKETSFLSNNRVEVAPVVGWPPVRSSRRNLTAQLKEEMKKKESDEEKELYVKINMEGVPIGRKVNLSAYNNYQQLSHAVDQLFSKKDSWDLNRQYTLVYEDTEGDKVLVGDVPWEMFVSTVKRLHVLKTSHAFSLSPRKHGKE
B4: IAA16 (Arabidopsis thaliana, UniProt O24407); chain MINFEATELRLGLPGGNHGGEMAGKNNGKRGFSETVDLKLNLSSTAMDSVSKVDLENMKEKVVKPPAKAQVVGWPPVRSFRKNVMSGQKPTTGDATEGNDKTSGSSGATSSASACATVAYVKVSMDGAPYLRKIDLKLYKTYQDLSNALSKMFSSFTIGNYGPQGMKDFMNESKLIDLLNGSDYVPTYEDKDGDWMLVGDVPWEMFVDSCKRIRIMKGSEAIGLAPRALEKCKNRS
Sequence | partner | positive tests
B1 (IAA18) | T1, itself | 1
B2 (ARF18 482-602) | T2, itself | 0
B3 (IAA28) | T3, itself | 1
B4 (IAA16) | T4, itself | 2

For quick reference, copied from above (sample 1):
Strand | E-score
AGTTAACT | -0.0578
CGCCGCCC | 0.123
ACAGGGAG | -0.0344
AGAATACA | -0.00788
CTCTTGTC | -0.0206
GTCAATAA | -0.123
ATGCATTA | -0.16
CAAAAAGG | 0.054
AAGGCGAC | -0.0589
